Measurements from different studies.
Each numbered part is a random draw from the data of one study; scales do not carry over between parts. Substitutions count along the parent as printed.

Series 1 — technique: RNA Bind-n-Seq; form: RNA; sample: in vitro; tested at: 365 nM; reference: no-protein control; direction: higher = stronger binding
Target: RNA binding protein fox-1 homolog 2, RRM domain, GST-SBP tag (RBFOX2, Homo sapiens, UniProt O43251-10, residues 100-194)
Notes: natural RNA segment, single round, ends assumed
Constant ends, left off below: GGGAGUUCUACAGUCCGACGAUC … UGGAAUUCUCGGGUGCCAA
Target sequence (chain): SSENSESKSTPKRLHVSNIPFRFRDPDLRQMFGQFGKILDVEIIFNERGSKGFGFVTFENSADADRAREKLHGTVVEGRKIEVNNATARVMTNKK
| Strand | RBNS enrichment (R) |
| --- | --- |
| CCAGCUUGCCUAGAGACGUUGCCUUCAUCAGAGAAGACUCCAUUAAUUCAGUGUCCCAAUGGUGUCCUAGGGAGGCAGCAGACGUUUCGUUUGUCCUCAGUAAGAGCUGA | 0.545 |
| UCCAUCUUUCCACCGCACACCUGGACCAGGCUUGCAGGCUGCCAGACGUCACUCCACCCGCCAGGGAGAGGGGAGCCAGAGCCGGUGGGAAGCGGGGAGGGGCUGCGUGG | 0.617 |
| UCCUAGUUUUAUAACAUUACCAUCCUUCGUUUUGAACUACAGAUGUUGUAGUGGGUUUUGGAGGAGGGAGUGGAGUAAGAUGCCCUCCCACUUUUAUCAGUUUAGUAGUA | 1.18 |
| GGGAAGACAAAGGAAACGUCUUUGAGAAGCCCCUUCAUAUUUAUUUAUUUAUCUCUUCCUGAACCAUGAAUUUCAUAUGUGGAAUAUUGCUAUAUUGACAGAUUCUUGCC | 0.556 |
| GUACAGGAAGAGGCAGGCACUGGCUGGCUCAGCUCCACUCGGGUGGAGUGGAAGUGGCCAGACCAUUUAGACGGACAGGGUCCUCACCCUACCCCUUUCCUGUGAGGCAG | 2.15 |
| UUGAGUCUGUUCCUUUCAUCUAAUCCAUUGGUUCUCAACCUUCCUAAUGCUGUAACCCUUUAAUACAGUUCCUCAUGUUCUGGUGACCCCUCCCCCAACUAUAAAAUUAU | 0.783 |
| UAUUGGACAAGGGCUUGCUUCAAGCAUCUGUAUUAGUCUGUAUUAAUGCUGCUGAUAAAGACGUACCCGAGACUGGGAAGAAAAAGAGGUUUACUUGGACUUACAGUUCC | 0.326 |
| UUGCUUGUAAAGUAAAAGCUUUUUUUCCUUGUAAACCAUUUAAGUCCAUUCCUUACUAUUCACUCACUCAUCUGUCUCCCUUCAUUUCACUGUUAGACUCUUUUCCACUU | 0.696 |
| UGUUGAAAGGCUACCAGUUAUAUUUGCUGUUAAUAGUCUAUUUGUAGAUUAGGAUUAAAGUGGGUUUAAUCCAUUUUUAUAGCUGUAUGAAUUUUUCUAAACAGGAACAG | 0.457 |
| AUUUGUAGAAAGGAGCUCACCAGCUCUGUCAGUGUUUAGUUUCUUCAUCUAUUAAACAGGGUUGGUUUUUCUGGUUGCUAGGGAGACUUAUAGUAAUACAACUUACUAUU | 0.294 |
| AUUUGGGGGGGAGGAUGGGGAAAAGAGCUGAGAGUUUAUGCUGAAAUGGAUUUAUAGAAUAUUUGUAAAUCUAUUUUUAGUGUUUGUUCGUUUUUUUAACUGUUCAUUCC | 0.587 |
| GUCCUCUGCAGUGCCUCUCUCACGGCUGUCUGACCCCAGCCUGCCUGUCCUGCCCCACUAGUCCUCACCACUACUCGCAUGUCCCCACCUUGCCUGGGACCAGCCUGGGA | 2.81 |

Series 2 — technique: protein-binding microarray; form: double-stranded DNA, one strand shown; sample: in vitro; tested at: 2200 nM top; notes: 60-bp whole probe; added: salmon DNA 0.4 mg/ml; reference: random background probes; direction: higher = stronger binding; constant ends, left off below: GCCTAGCAC … GTCTTGATTCGCTTGACGCTGCTG
Target: Interferon regulatory factor 7, full length, phosphomimetic (IRF7, Homo sapiens, UniProt Q92985, residues 1-503, S471D/S472D/S475D/S476D/S477D/S483D/S484D/S487D)
Construct (chain): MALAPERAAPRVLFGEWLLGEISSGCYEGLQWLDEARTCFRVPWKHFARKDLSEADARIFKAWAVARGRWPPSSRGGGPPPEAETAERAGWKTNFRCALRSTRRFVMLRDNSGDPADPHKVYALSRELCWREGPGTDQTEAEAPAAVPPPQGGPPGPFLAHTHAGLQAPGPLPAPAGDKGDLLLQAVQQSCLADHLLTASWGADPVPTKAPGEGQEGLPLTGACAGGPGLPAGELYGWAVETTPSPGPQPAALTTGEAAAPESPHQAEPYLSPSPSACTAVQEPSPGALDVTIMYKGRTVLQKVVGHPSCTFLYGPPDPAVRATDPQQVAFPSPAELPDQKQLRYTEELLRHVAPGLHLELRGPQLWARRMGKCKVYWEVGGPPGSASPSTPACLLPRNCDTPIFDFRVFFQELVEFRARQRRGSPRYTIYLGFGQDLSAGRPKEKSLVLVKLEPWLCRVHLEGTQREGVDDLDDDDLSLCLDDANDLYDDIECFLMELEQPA
| Strand | fitted relative affinity [z-score] |
| --- | --- |
| GACTGTATCGACTTTCGGGACGTGCTA | 3.32 |
| CAGAAAATAGAAACTCGTGTTGTGCTA | 0.795 |
| GACGGTTCCGGGTTCGGGACGTGCTAG | 1.79 |
| GACGGTTTCCTTATCCTGCCGTGCTAG | 3.03 |
| TTTAGGTCCCTTTTCATGCTGTGCTAG | 1.96 |
| GACGGTTTCGACACTGGGGTCGTGCTA | 2.52 |
| GACGTTCTCCTTTTCCTGACGTGCTAG | 2.39 |
| TCATCTTATCCTATCAGACTGTGCTAG | 2.31 |
| GACGATTTCAGTTTCGAAACGTGCTAG | 5.66 |
| TTAGATATAAGTTTCGATTAGTGCTAG | 4.76 |
| TCAAAAGTCTTTTATGGTACTGTGCTA | -0.472 |
| GTAGGTTTCGACTTTCGGTTAGTGCTA | 10.5 |
| TCAAGTTTCCATTTTCTACTGTGCTAG | 5.19 |
| TCATCTCTCAAAAGTCACACTGTGCTA | 0.501 |
| ATTGCTTCCTCTTTCACTGCGTGCTAG | 3.36 |
| TCAGCTTTCCTCGTGATACTGTGCTAG | 1.67 |
| GAAGATGTCAAACTCACTCAGTGCTAG | -0.182 |
| GATGGTCTCCTTTTCCTGACGTGCTAG | 1.5 |

Series 3 — technique: DHFR PCA, deep sequencing; sample: yeast; added: (+)-ABA 0.0091 µM; reference: wild-type fitted maximum; direction: higher = stronger binding
Target: ABI1, truncated, D143A, DHFR fusion (Arabidopsis thaliana)
Notes: methotrexate growth selection, single substitutions
Starting sequence: PYL1, truncated, DHFR fusion (Arabidopsis thaliana); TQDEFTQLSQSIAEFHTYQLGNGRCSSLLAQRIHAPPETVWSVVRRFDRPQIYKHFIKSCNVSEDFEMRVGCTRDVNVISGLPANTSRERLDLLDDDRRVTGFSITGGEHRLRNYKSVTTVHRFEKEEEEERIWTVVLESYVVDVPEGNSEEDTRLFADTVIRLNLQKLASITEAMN; partner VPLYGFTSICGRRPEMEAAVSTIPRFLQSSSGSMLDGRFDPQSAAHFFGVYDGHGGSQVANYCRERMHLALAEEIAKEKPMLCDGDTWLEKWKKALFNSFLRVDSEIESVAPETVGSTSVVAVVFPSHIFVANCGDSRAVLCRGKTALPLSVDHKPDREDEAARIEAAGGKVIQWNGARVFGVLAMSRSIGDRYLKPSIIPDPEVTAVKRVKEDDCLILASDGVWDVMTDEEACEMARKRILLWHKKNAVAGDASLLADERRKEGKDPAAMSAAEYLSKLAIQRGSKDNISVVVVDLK
| Change | relative binding score |
| --- | --- |
| Q51S | -8.85% |
| S59C | -1.17% |
| E139M | 1.17% |
| V137S | -2% |
| E14Q | 8.54% |
| E130M | 14.3% |
| K58Q | 4.96% |
| G107K | 4.82% |
| L28C | 7.09% |
| N177D | 11.9% |
| N177V | 42.7% |
| L112P | 3.61% |
| S150T | 45.7% |
| F157P | 0.836% |
| C72H | 1.55% |
| V62F | -2.2% |
| S140M | 1.51% |

Series 4 — technique: protein-binding microarray; form: hairpin DNA; sample: in vitro; tested at: not given; reference: not given; direction: higher = stronger binding; constant ends, left off below: GAGGCCG … CGGCCTCACACTC
Target: Cyclic AMP-responsive element-binding protein 1, full length (CREB1, Homo sapiens, UniProt P16220, residues 1-327)
Chain of UniProt P16220 (whole entry, looked up): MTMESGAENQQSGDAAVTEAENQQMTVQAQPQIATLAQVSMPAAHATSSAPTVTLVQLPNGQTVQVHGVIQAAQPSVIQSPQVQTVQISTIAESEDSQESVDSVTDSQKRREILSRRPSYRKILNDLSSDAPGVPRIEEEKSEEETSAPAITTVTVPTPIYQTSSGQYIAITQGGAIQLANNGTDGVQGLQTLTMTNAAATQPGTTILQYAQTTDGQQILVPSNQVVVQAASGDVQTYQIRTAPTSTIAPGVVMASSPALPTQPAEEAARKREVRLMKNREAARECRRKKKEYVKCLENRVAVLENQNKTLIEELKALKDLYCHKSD
Notes: whole hairpin DNA, median over replicate spots
| Strand | median fluorescence [a.u.] |
| --- | --- |
| GATTACGTCAGCCTCCTGGCTGACGTAATC | 10000 |
| GATGCGGTCAGCCTCCTGGCTGACCGCATC (5mC at 32) | 2800 |
| GATGCCGTCAGCCTCCTGGCTGACGGCATC | 3150 |
| ACGACGTCGCGCCTCCTGGCGCGACGTCGT (5mC at 9 15 17 29 35) | 4370 |
| GATGATGTCAGCCTCCTGGCTGACATCATC | 5030 |
| GATGACGTCGGCCTCCTGGCCGACGTCATC (5mC at 16) | 7190 |
| GATGACTTCAGCCTCCTGGCTGAAGTCATC | 2860 |
| ACGCCGTCGTGCCTCCTGGCACGACGGCGT (5mC at 9 11 15 29 35) | 2970 |
| GATGACGTCGGCCTCCTGGCCGACGTCATC (5mC at 28) | 14900 |
| GCTGACGTCAGCCTCCTGGCTGACGTCAGC (5mC at 16) | 6680 |
| GCGACGTCGTGCCTCCTGGCACGACGTCGC (5mC at 9 15 29 35 37) | 4280 |
| GCTGACGCCAGCCTCCTGGCTGGCGTCAGC (5mC at 15) | 6930 |
| GATCGCGTCAGCCTCCTGGCTGACGCGATC (5mC at 11 33) | 5120 |
| GATGACGTCCGCCTCCTGGCGGACGTCATC (5mC at 17) | 7570 |
| GACGACGTCAGCCTCCTGGCTGACGTCGTC | 5330 |
| GATGACGTCAGCCTCCTGGCTGACGTCATC (5mC at 37) | 22100 |

Series 5 — target: CCNF, cyclin fold, Cln2 fusion (human); technique: yeast growth competition, sequencing; sample: yeast; notes: strong parent motif; reference: not given; direction: higher = stronger binding
Starting sequence: PKMYT1 docking peptide (human); SFEPRNLLSLFED
| Change | normalised enrichment score |
| --- | --- |
| SFETRNLLSLFED [P4T] | -0.321 |
| SFPPRNLLSLFED [E3P] | 0.589 |
| SFEPRNLYSLFED [L8Y] | 0.486 |
| SFEPRVLLSLFED [N6V] | 0.362 |
| SLEPRNLLSLFED [F2L] | 1.21 |
| KFEPRNLLSLFED [S1K] | 1.22 |
| SCEPRNLLSLFED [F2C] | 1.66 |
| SFEPRNLLSHFED [L10H] | -0.161 |
| SFEPRNLLSLFES [D13S] | 1.58 |
| SFEPRNLLSLFTD [E12T] | 0.734 |
| SFEPRNLLSLFYD [E12Y] | 0.951 |
| SFEPRNLLSDFED [L10D] | 0.648 |
| SFEPRNWLSLFED [L7W] | -0.443 |
| SFEPRNLDSLFED [L8D] | -0.468 |
| SFEPRNLLSLFAD [E12A] | 0.219 |
| SFMPRNLLSLFED [E3M] | 2.36 |
| SFEPRNNLSLFED [L7N] | -0.628 |
| SFEPRILLSLFED [N6I] | -0.301 |
| SFEPRNHLSLFED [L7H] | -1.3 |

Some of these lines once more (series 5):
| Change | normalised enrichment score |
| --- | --- |
| SFPPRNLLSLFED [E3P] | 0.589 |
| SFEPRNLYSLFED [L8Y] | 0.486 |
| SFEPRVLLSLFED [N6V] | 0.362 |
| SLEPRNLLSLFED [F2L] | 1.21 |
| KFEPRNLLSLFED [S1K] | 1.22 |
| SCEPRNLLSLFED [F2C] | 1.66 |
| SFEPRNLLSHFED [L10H] | -0.161 |
| SFEPRNLLSLFES [D13S] | 1.58 |
| SFEPRNLLSLFTD [E12T] | 0.734 |
| SFEPRNLLSLFYD [E12Y] | 0.951 |
| SFEPRNLLSDFED [L10D] | 0.648 |
| SFEPRNWLSLFED [L7W] | -0.443 |
